Measured values from different studies.
Each numbered part is a random draw from the data of one study; scales do not carry over between parts. Changes are numbered by the printed parent chain.
Chain of UniProt Q969T4 (whole entry, looked up): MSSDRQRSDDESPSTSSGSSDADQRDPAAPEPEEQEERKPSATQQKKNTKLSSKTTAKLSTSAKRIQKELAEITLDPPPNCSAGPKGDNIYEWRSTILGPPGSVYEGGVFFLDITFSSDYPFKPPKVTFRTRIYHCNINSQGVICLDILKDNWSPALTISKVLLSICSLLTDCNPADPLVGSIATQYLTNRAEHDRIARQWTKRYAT
Chain of UniProt Q9C0C9 (whole entry, looked up): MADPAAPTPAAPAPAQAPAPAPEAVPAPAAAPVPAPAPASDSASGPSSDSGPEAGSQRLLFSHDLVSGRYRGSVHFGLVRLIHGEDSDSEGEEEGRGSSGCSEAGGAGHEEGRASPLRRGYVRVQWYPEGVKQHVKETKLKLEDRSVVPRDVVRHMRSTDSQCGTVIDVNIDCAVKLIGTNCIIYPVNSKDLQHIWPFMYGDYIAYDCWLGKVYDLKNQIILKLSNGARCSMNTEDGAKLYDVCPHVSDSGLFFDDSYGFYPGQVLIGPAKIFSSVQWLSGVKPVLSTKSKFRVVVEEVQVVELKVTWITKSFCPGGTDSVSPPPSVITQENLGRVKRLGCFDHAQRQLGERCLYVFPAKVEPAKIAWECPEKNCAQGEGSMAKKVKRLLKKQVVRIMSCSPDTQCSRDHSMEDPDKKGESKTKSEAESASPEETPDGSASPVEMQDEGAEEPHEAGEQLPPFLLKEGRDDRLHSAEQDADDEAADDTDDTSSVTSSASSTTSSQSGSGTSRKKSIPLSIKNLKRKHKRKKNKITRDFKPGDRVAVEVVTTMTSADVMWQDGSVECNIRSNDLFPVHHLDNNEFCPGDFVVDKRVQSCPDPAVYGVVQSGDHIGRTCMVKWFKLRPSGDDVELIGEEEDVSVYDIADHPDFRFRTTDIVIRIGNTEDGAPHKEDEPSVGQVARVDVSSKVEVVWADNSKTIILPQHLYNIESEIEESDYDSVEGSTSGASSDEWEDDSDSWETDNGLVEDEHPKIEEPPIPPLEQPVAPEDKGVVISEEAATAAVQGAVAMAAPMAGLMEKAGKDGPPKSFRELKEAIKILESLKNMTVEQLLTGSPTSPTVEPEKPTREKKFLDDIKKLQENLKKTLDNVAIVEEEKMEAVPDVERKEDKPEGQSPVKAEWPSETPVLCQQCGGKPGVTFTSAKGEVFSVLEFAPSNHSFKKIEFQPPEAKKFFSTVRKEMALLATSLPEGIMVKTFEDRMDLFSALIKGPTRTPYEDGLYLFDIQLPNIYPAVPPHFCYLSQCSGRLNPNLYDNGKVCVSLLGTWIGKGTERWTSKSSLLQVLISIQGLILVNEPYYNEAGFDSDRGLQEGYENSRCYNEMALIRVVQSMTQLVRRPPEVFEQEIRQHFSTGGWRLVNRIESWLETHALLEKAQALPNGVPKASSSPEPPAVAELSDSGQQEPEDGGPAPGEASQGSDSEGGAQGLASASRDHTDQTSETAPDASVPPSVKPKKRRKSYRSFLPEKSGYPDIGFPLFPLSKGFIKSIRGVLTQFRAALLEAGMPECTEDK
Chain of UniProt Q9H832 (whole entry, looked up): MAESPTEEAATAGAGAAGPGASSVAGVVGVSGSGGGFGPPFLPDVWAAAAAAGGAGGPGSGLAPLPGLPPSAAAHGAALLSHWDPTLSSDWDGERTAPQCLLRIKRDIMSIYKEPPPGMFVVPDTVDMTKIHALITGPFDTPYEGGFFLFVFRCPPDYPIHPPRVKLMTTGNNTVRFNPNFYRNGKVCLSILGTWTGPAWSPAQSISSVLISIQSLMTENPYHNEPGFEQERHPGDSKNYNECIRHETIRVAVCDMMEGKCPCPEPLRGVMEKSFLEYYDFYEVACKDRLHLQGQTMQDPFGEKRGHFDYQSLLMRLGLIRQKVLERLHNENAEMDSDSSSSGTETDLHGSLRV
Chain of UniProt Q16763 (whole entry, looked up): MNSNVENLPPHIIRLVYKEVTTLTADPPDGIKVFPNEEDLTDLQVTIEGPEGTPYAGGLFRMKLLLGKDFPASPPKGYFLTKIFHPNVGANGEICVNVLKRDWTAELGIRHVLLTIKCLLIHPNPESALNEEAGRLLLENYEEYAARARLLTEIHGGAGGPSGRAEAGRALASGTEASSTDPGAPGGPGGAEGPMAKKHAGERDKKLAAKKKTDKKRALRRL
Chain of UniProt P61081 (whole entry, looked up): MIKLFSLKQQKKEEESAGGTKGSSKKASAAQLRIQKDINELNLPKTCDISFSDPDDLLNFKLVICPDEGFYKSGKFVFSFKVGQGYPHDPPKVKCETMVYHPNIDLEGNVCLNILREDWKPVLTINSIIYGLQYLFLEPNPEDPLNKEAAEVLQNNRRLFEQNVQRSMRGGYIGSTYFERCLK
Chain of UniProt Q7Z7E8 (whole entry, looked up): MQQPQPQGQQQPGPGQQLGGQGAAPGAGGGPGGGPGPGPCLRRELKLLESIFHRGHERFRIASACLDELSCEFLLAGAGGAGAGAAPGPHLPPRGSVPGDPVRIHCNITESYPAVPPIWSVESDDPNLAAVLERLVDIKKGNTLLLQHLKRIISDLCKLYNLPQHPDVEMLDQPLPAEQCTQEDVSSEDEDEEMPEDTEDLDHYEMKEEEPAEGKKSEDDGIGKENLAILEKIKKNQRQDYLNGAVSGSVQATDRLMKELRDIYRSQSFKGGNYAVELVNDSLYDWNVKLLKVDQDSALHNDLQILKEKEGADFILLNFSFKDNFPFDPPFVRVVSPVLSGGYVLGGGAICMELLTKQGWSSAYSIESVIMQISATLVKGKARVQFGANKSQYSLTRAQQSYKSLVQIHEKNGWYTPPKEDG
Chain of UniProt P63146 (whole entry, looked up): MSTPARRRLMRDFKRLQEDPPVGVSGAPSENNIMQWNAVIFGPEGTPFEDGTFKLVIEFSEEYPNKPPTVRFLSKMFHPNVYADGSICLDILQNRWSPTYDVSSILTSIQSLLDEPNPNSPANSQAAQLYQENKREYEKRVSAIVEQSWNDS
Chain of UniProt P51668 (whole entry, looked up): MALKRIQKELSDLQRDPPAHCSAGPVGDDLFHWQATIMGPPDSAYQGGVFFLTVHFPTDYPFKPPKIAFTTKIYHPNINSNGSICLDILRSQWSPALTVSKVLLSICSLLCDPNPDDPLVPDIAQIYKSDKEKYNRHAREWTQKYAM
Chain of UniProt Q8N2K1 (whole entry, looked up): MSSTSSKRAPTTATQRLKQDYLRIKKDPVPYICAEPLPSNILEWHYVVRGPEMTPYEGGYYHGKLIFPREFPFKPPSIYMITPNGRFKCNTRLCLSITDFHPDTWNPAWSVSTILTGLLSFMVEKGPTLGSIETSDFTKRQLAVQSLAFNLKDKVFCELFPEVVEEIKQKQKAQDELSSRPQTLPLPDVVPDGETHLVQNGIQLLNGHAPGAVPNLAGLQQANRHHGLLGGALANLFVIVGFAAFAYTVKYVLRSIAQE
Chain of UniProt Q712K3 (whole entry, looked up): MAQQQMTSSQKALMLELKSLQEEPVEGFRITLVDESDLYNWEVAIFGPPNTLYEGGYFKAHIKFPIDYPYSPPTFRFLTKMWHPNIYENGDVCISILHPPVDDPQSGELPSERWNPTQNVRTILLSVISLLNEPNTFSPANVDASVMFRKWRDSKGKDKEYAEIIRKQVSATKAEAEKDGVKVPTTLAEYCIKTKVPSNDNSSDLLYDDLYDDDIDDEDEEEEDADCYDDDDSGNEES
Chain of UniProt Q9Y385 (whole entry, looked up): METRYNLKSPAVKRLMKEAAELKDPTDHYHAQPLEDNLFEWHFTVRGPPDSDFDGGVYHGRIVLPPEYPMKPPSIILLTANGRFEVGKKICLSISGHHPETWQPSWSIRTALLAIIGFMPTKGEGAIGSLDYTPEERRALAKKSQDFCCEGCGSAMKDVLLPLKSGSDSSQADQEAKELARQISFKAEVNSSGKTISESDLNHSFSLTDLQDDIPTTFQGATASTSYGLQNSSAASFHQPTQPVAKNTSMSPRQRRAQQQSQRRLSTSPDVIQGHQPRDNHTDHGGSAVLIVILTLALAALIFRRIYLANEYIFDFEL
Chain of UniProt Q9NPD8 (whole entry, looked up): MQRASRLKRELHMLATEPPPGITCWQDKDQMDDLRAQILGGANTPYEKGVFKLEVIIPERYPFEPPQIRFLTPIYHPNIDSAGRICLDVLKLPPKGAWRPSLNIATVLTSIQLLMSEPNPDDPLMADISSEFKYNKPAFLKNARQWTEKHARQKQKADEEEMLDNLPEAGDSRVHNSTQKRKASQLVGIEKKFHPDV

Series 1
Target: ABI1, truncated, D143A, DHFR fusion (Arabidopsis thaliana)
Technique: DHFR PCA, deep sequencing
Sample: yeast
Setting: methotrexate growth selection, single substitutions
Together with: (+)-ABA 0 µM
Relative to: wild-type fitted maximum
Direction: higher = stronger binding
Quantity: relative binding score
Starting sequence: PYL1, truncated, DHFR fusion (Arabidopsis thaliana); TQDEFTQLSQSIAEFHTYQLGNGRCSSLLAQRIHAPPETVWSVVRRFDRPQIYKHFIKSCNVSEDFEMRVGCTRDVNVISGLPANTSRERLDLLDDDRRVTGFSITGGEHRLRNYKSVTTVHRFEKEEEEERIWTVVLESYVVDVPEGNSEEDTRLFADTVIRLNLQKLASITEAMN
D75K: 10.2%
V43Y: 2.79%
Q10G: 30.1%
W134R: 4.8%
N165Q: 7.01%
V161L: 64.9%
E130C: 20.1%
Q10P: 25.8%
V137D: 3.76%
R113Q: 46.2%
E4V: 23.9%
R74C: 1.13%

Series 2
Molecule: B1 (DTX1 RING domain)
Technique: yeast two-hybrid
Sample: yeast
Setting: mostly zero background
Relative to: not given
Direction: higher = stronger interaction
Quantity: lacZ reporter activity
B1: DTX1 RING domain (UniProt Q86Y01); chain QKVKNPPDEDCTICMERLVTASGYEGVLRHKGVRPELVGRLGRCGHMYHLLCLVAMYSNGNKDGSLQCPTCKAIYGEKTGTQ
UBE2M UBC core domain (UniProt P61081): 0
UBE2Q1 UBC core domain (UniProt Q7Z7E8): 0
UBE2I UBC core domain (UniProt P63279): 0
UBE2R2 UBC core domain (UniProt Q712K3): 0
UBE2Z UBC core domain (UniProt Q9H832): 0
UBE2E3 UBC core domain (UniProt Q969T4): 0
UBE2T UBC core domain (UniProt Q9NPD8): 0
UBE2S UBC core domain (UniProt Q16763): 0
UBE2D1 UBC core domain (UniProt P51668): 2480
UBE2J1 UBC core domain (UniProt Q9Y385): 0
UBE2O UBC core domain (UniProt Q9C0C9): 0
UBE2J2 UBC core domain (UniProt Q8N2K1): 0
UBE2B UBC core domain (UniProt P63146): 0

Series 3
Target: NFE2L2, bZIP domain (human)
Technique: DHFR protein complementation
Sample: yeast
Setting: single substitutions, most at no-binding floor
Relative to: wild-type JUN-FOS pair
Direction: higher = stronger binding
Quantity: binding fitness
Starting sequence: JUN, bZIP domain (human); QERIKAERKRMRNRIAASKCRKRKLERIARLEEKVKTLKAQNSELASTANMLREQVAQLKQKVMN; partner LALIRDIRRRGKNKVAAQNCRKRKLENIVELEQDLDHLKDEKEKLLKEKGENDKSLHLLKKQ
A49K: -1.52 natural log
E33K: -1.16 natural log
A49G: -1.4 natural log
R30Q: -1.38 natural log
L45V: -1.47 natural log
A29T: -1.46 natural log
V35C: -1.55 natural log
L31Q: -1.48 natural log
N42A: -1.5 natural log
L52W: -1.6 natural log
E33F: -1.47 natural log
V35M: -1.5 natural log
L52S: -1.55 natural log
E33T: -1.38 natural log

Series 4
Target: Interferon regulatory factor 5, full length, phosphomimetic (IRF5, Homo sapiens, UniProt Q13568-2, residues 1-514, S451D/S453D/S456D/S462D)
Technique: protein-binding microarray
Form: double-stranded DNA, one strand shown
Sample: in vitro
Tested at: 940 nM top
Setting: 60-bp whole probe
Together with: salmon DNA 0.4 mg/ml
Relative to: random background probes
Direction: higher = stronger binding
Quantity: fitted relative affinity
Constant ends, left off below: GCCTAGCAC … GTCTTGATTCGCTTGACGCTGCTG
TCTATAATGGATATATATCAGTGCTAG: 0.0283 z-score
GACGGACTGGAGTATCGGGACGTGCTA: 0.451 z-score
TCAACCATCATCCTCACACTGTGCTAG: 0.825 z-score
CTAAAAATCCCATTAAATTTGTGCTAG: 0.325 z-score
AGTGTTATAATATTATTGCAGTGCTAG: -0.256 z-score
TTGGGACTGGGGTTTCGGTTAGTGCTA: 5.29 z-score
TCACCTTTCCTTTGCCTACTGTGCTAG: 2.11 z-score
TTAGATATCAGTTTCGATTGGTGCTAG: 8.55 z-score
TTGCTTTCCTTTATGTACTCGTGCTAG: 1.62 z-score
GACGGTATCGGGTATAGGGACGTGCTA: 4.81 z-score
GACGGTTTTGGTTTCGGGACGTGCTAG: 8.53 z-score
TTAGATTTCGGGTATCAATTAGTGCTA: 2.04 z-score
GACGATCTCAGACGGGAGACGTGCTAG: -0.349 z-score
TTAGCTATCGGGTATCGATTAGTGCTA: 2.41 z-score
TTAGGTATCCTTACCCTTTAGTGCTAG: 0.24 z-score
CCAGGTTGGGAGGGGTAGGGGTGCTAG: 1.11 z-score
GACGGTTTCGGAACTGGGGACGTGCTA: 6.92 z-score
TTAGAACTGGGGTTTCCATTAGTGCTA: 0.301 z-score
GTCGAACTGAGTATCGAGACGTGCTAG: 2.45 z-score
GCCGATTTCAGACTGGAGACGTGCTAG: -0.2 z-score
AACGATATCAGTATCGAGACGTGCTAG: 1.62 z-score
GGAGCGCCAGGCCCCGGCAGGTGCTAG: -0.896 z-score

Series 5
Target: Sal-like protein 4, full length isoform B (SALL4, Homo sapiens, UniProt Q9UJQ4-2, residues 1-616)
Technique: universal PBM
Form: double-stranded DNA, one strand shown
Sample: in vitro
Tested at: not given
Setting: 8-mer, flanks averaged, mean of replicates
Direction: higher = stronger binding
Quantity: E-score
Construct (chain): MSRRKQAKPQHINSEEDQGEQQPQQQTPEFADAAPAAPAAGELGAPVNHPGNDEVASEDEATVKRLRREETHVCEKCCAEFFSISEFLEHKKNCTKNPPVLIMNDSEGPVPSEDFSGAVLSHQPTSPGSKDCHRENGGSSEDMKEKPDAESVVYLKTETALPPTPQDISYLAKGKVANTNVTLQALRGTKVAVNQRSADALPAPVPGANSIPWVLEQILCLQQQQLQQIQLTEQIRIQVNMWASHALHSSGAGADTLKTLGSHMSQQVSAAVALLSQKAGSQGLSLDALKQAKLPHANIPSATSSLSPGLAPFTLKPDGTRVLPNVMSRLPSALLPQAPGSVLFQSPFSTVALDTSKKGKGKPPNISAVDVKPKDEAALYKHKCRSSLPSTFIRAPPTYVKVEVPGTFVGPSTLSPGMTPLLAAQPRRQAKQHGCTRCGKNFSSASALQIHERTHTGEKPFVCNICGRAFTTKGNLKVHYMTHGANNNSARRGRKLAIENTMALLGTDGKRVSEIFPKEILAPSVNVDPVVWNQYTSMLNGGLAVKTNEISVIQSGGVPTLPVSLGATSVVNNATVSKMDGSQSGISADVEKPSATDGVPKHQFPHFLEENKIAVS
AATATGTC: 0.334
TGTATCAA: 0.187
AGCTGGTA: -0.185
CGGCAGAC: -0.333
AGCACAAC: 0.0353
GCAAACGA: 0.0783
CTTTACCA: 0.123
ACGGGGCA: -0.172
GCCGAGCA: -0.336
AAGTCGCG: -0.0226
TCTTCGCA: 0.0195
GCATTTCA: 0.104
CGGCCATA: -0.129
GGACTTCA: -0.118
AATGAAGT: 0.229
CAGTCCCG: -0.254
CCATGTCA: -0.131
TCACTACA: 0.13
ATTGAAGG: 0.111
GAGTGACA: -0.064
GTGTTGCA: -0.062
ACAGCGGC: -0.197
AAGTGGTG: -0.0247
AAACGCGA: 0.0219

Series 6
Target: CCND1, cyclin fold, Cln2 fusion (human)
Technique: yeast growth competition, sequencing
Sample: yeast
Setting: weak parent motif
Relative to: not given
Direction: higher = stronger binding
Quantity: normalised enrichment score
Starting sequence: BORA docking peptide (human); SSLRRKLFLDGNG
L3A: 0.649
R5K L9F: 0.756
N12A: 0.769
R5K: 0.455
G11A: 0.322
R5A L7A: -0.236
K6A: 0.148
S2A: 0.494
R5A: 0.0529

A few entries again (series 4):
TTAGATATCAGTTTCGATTGGTGCTAG: 8.55 z-score
TTGCTTTCCTTTATGTACTCGTGCTAG: 1.62 z-score
GACGGTATCGGGTATAGGGACGTGCTA: 4.81 z-score
GACGGTTTTGGTTTCGGGACGTGCTAG: 8.53 z-score
TTAGATTTCGGGTATCAATTAGTGCTA: 2.04 z-score
GACGATCTCAGACGGGAGACGTGCTAG: -0.349 z-score
TTAGCTATCGGGTATCGATTAGTGCTA: 2.41 z-score
